Assay results gathered from unrelated publications.
“And” joins repeats or separate records; there may be more than shown. ± marks the error that the study gave.

Structure (SMILES) | assay | test system | conditions | scale | measurement | result
COc1ccc(C[C@@H]2NC(=O)[C@H]([C@@H](C)O)NC(=O)[C@@H]3[C@@H]4CCN3C(=O)[C@@H]3Cc5cn(c6ccc(F)cc56)CCCCCCN(Cc5ccc(cc5)CCNC(=O)[C@]5(C)CCCN5C2=O)C(=O)CCC(=O)N[C@@H](C)C(=O)N[C@H](CNC(=O)CCCCC[N+](C)(C)C)C(=O)N[C@@H](Cc2cccc(c2)CNC(=O)CO4)C(=O)N3)cc1 |  | fasted healthy men, plasma | oral, 200 mg single dose, 24 h, with 1800 mg Labrasol, median |  | plasma concentration | 9.91 nM
[18F]CCOc1ccccc1OC(c1ccccc1)C1CNCCO1 (stereo not shown) |  | 1-octanol/phosphate buffer | pH 7.4 |  | log P | 2 to 2.47
CCCCCOc1ccc(-c2cc(-c3ccc(C(=O)N[C@H]4C[C@@H](O)[C@@H](O)NC(=O)[C@@H]5[C@@H](O)[C@@H](C)CN5C(=O)[C@H]([C@H](O)CC(N)=O)NC(=O)[C@H]([C@H](O)[C@@H](O)c5ccc(O)c(OS(=O)(=O)O)c5)NC(=O)[C@@H]5C[C@@H](O)CN5C(=O)[C@H]([C@@H](C)O)NC4=O)cc3)no2)cc1 |  | human children aged 6-11 years, plasma | intravenous, 3 mg/kg once daily, day 7, mean |  | clearance at steady state | 0.205 mL/min/kg
CC(=O)N[C@@H]1C(OC(C)=O)O[C@H](COC(C)=O)[C@@H](OC(C)=O)[C@@H]1OC(C)=O (stereo partly shown) | sialic acid production | fetal bovine serum | with: 100% serum pre-incubation |  | serum stability time | ≥ 48 h
O[C@H]1CCCN[C@@H]1CCCn1cnc2c(Cl)c(Cl)ccc21 |  | human, plasma | oral, 100 mg single dose, capsule, geometric mean |  | Vz/F | 1560 L
O=c1[nH]c(Cc2ccccn2)nc2c1cnn2C1CCOCC1 |  | healthy men, extensive metabolizers, plasma | oral, 200 mg single dose, tablet, geometric mean |  | half-life | 2.18 h
CNC(=O)c1ccc(-c2cnn3ccc(C(=O)N(C)c4ccc(Cl)c(C(=O)OC)c4)cc23)cc1 |  | Wistar rats, both sexes, plasma | oral, 50 mg/kg/day, day 14 |  | Tmax | 0.5 h
CC(=O)N[C@H](CCCCNC(=O)C(C)F)C(=O)N[C@@H](CS)C(=O)N[C@@H](CS)C(=O)N[C@@H](CCC(=O)O)C(=O)N[C@@H](Cc1c[nH]cn1)C(=O)N[C@H](Cc1ccccc1)C(=O)N[C@@H](CCCNC(=N)N)C(=O)N[C@@H](Cc1c[nH]c2ccccc12)C(=O)N[C@@H](CS)C(=O)N[C@@H](CCCNC(=N)N)C(=O)N1CCC[C@H]1C(=O)N[C@H](C(N)=O)C(C)C (stereo partly shown) [fluorine-18 labelled] |  | C57BL/6 mice, male, B16-F10 tumour, bone | intravenous, 4 h |  | tissue uptake | 0.17 ± 0.09 %ID/g
CC[C@H](C)[C@H](NC(=O)[C@H](CO)NC(=O)[C@H](C)NC(=O)[C@@H](NC(=O)CNC(=O)[C@H](CO)NC(=O)[C@@H](NC(=O)[C@@H](NC(=O)[C@H](Cc1c[nH]cn1)NC(=O)[C@@H]1CCCN1C(=O)[C@@H](NC(=O)[C@H](CC(C)C)NC(=O)[C@H](CO)NC(=O)[C@H](CC(C)C)NC(=O)[C@@H](N)Cc1ccccc1)[C@@H](C)CC)[C@@H](C)CC)C(C)C)C(C)C)C(=O)N[C@@H](C)C(=O)N[C@@H](CCCCN)C(=O)N[C@@H](Cc1c[nH]cn1)C(=O)N[C@@H](Cc1ccccc1)C(N)=O | UPLC-MS/MS | rat plasma | 0.05 µg/mL, 4 h, room temperature, short-term stability |  | concentration found | 53 ng/mL
N=C(N)NCCC[C@H](NC(=O)[C@@H]1CCCN1C(=O)[C@H](Cc1c[nH]c2ccccc12)NC(=O)[C@H](CCCNC(=N)N)NC(=O)[C@H](Cc1ccccc1)NC(=O)[C@H](CC(=O)O)NC(=O)CNC(=O)[C@@H](N)CCCNC(=N)N)C(=O)O | Evans blue extravasation | Sprague-Dawley rat, BCCAO model | concentration not given, day 28 | relative to: untreated BCCAO rats | BBB permeability | no effect
CCNc1nc(Cl)nc(NC(C)C)n1 | LC-MS/MS | herbicide solution | 2 h, 4 °C, with: 365 nm UV exposure |  | remaining amount | 25.8 ± 11.1%
CCCCCOc1ccc(-c2cc(-c3ccc(C(=O)N[C@H]4C[C@@H](O)[C@@H](O)NC(=O)[C@@H]5[C@@H](O)[C@@H](C)CN5C(=O)[C@H]([C@H](O)CC(N)=O)NC(=O)[C@H]([C@H](O)[C@@H](O)c5ccc(O)c(OS(=O)(=O)O)c5)NC(=O)[C@@H]5C[C@@H](O)CN5C(=O)[C@H]([C@@H](C)O)NC4=O)cc3)no2)cc1 |  | infants, plasma | intravenous, 7 and 10 mg/kg/day, day 4, median |  | half-life | 10.6 h
CCCCc1oc2ccc(NS(C)(=O)=O)cc2c1C(=O)c1ccc(OCCCN(CCCC)CCCC)cc1 |  | beagle dog, female, persistent atrial fibrillation model | intravenous, 3 mg/kg, 0.5 h |  | peak QTcF change | 16 ± 11 ms
c1cc2ccc3cccc4ccc(c1)c2c34 | HPLC-fluorescence | Wistar rat, male, colon | oral, 4 mg/kg, 24 h |  | tissue concentration | 37.5 ± 13.8 ng/g
CCCCCCCCCCCCCC(=O)NCC(=O)N[C@@H](Cc1ccc(O)cc1)C(=O)NCC(=O)N[C@@H](CCCNC(=N)N)C(=O)N[C@@H](CCCCN)C(=O)N[C@@H](CCCCN)C(=O)N[C@@H](CCCNC(=N)N)C(=O)N[C@@H](CCCNC(=N)N)C(=O)N[C@@H](CCC(N)=O)C(=O)N[C@@H](CCCNC(=N)N)C(=O)N[C@@H](CCCNC(=N)N)C(=O)N[C@@H](CCCNC(=N)N)C(=O)N[C@@H](C)C(=O)N[C@@H](CCCNC(=N)N)C(=O)N[C@@H](CO)C(=O)N[C@@H](CCCNC(=N)N)C(=O)N[C@@H](CC(C)C)C(=O)N[C@@H](C)C(=O)N[C@@H](CCC(=O)O)C(=O)N[C@@H](CC(C)C)C(=O)N[C@@H](CCCNC(=N)N)C(=O)NCC(=O)N[C@H](C(=O)N1CCC[C@H]1C(=O)N[C@@H](CCCNC(=N)N)C(=O)NCC(=O)N[C@@H](CC(C)C)C(=O)O)C(C)C | conditioned place preference | rat | intracerebroventricular, 10 µg in 5 µL, 5 pairings, test 24 h after last | relative to: total time | time in drug-paired chamber | 46.5 ± 5.9%
CN[C@@](C)(C[18F])C(=O)O |  | SCID mouse A549 xenograft, spleen | 15 min, post injection |  | tissue uptake | 12 ± 4.4 %ID/g

Structure (SMILES) | assay | test system | conditions | scale | measurement | result
CC(=O)O[C@H]1C(=O)[C@@]2(C)[C@H]([C@H](OC(=O)c3ccccc3)[C@]3(O)C[C@H](OC(=O)[C@H](O)[C@@H](NC(=O)c4ccccc4)c4ccccc4)C(C)=C1C3(C)C)[C@]1(OC(C)=O)CO[C@@H]1C[C@@H]2O |  | BALB/c mouse, serum | intraperitoneal, 10 mg/kg every three days, 60 days |  | creatinine | 145 µmol/L and 196 µmol/L and 153 µmol/L
CC1(C)S[C@@H]2[C@H](NC(=O)[C@@H](C(=O)O)c3ccsc3)C(=O)N2[C@H]1C(=O)O |  | rat plasma | 8000 ng/mL, 24 h, room temperature, short-term stability | relative to: nominal concentration | relative error | -0.9%
NC(=O)c1nc(F)c[nH]c1=O | UV-Vis spectrophotometry | supercritical CO2 | 120 min, 338 K, 30 MPa, 809.58 kg/m^3 |  | solubility | 2620 µg/mL
CSCC[C@H](NC(=O)[C@H](CC(=O)O)NC(=O)[C@H](Cc1ccccc1)NC(=O)[C@H](CCCNC(=N)N)NC(=O)[C@H](Cc1ccc(O)cc1)NC(=O)[C@H](CC(=O)O)NC(=O)[C@H](CCCNC(=N)N)NC(=O)[C@H](Cc1c[nH]c2ccccc12)NC(=O)[C@@H](NC(=O)[C@H](Cc1c[nH]c2ccccc12)NC(=O)[C@@H](N)CCCNC(=N)N)C(C)C)C(=O)NCC(=O)N[C@@H](Cc1ccccc1)C(=O)N[C@@H](CC(=O)O)C(=O)N[C@@H](Cc1c[nH]c2ccccc12)C(=O)N[C@H](C(=O)N[C@@H](Cc1c[nH]c2ccccc12)C(=O)N[C@@H](CCC(=O)O)C(=O)O)C(C)C | circular dichroism | phosphate buffer | pH 6.5 |  | Tm | 25.3 ± 0.1 °C
N[C@@H](CC(=O)O)C(=O)N[C@@H](CCC(=O)O)C(=O)NCC(=O)N1CCC[C@H]1C(=O)O |  | ICR mouse, tail bleeding | oral, 450 µmol/kg | relative to: vehicle | thymus index | no effect
COc1cc(Nc2ncc(F)c(Nc3ccc4c(n3)NC(=O)C(C)(C)O4)n2)cc(OC)c1OC |  | buffer without surfactant or BSA |  |  | solubility | < 1 µM
[123I]c1cncc(OC[C@@H]2CCN2)c1 | SPECT | human, hippocampus | intravenous bolus, 9.1 mCi | relative to: tissue over plasma | tissue/plasma ratio | 16.6
CC[C@H](C)[C@H](NC(=O)[C@@H](N)CCCNC(=N)N)C(=O)N[C@H](C(=O)N1CCC[C@H]1C(=O)N[C@@H](C)C(N)=O)C(C)C |  | CD-1 mouse, female, plasma | intravenous, 60 mg/kg daily, day 14, infused over 1 min |  | Tmax | 0.05 h
CC[C@H](C)[C@@H]1NC(=O)[C@H]([C@@H](C)O)NC(=O)[C@@H](NC(=O)[C@H](Cc2ccccc2)NC(=O)[C@H](C)NC(=O)[C@H](CCCCN)NC(=O)[C@H](CCCCN)NC(=O)[C@H](CC(C)C)NC(=O)[C@@H](NC(=O)[C@H](CCCCN)NC(=O)[C@H](C)NC(=O)[C@H](C)NC(=O)[C@@H](NC(=O)CNC(=O)[C@H](C)NC(=O)[C@@H](NC(=O)[C@H](CCCCN)NC(=O)[C@@H]2CCCN2C(=O)[C@H](Cc2ccccc2)NC(=O)[C@@H](N)Cc2ccccc2)C(C)C)C(C)C)C(C)C)CSSC[C@@H](C(=O)O)NC(=O)[C@H](CCCCN)NC(=O)[C@H](CCCCN)NC(=O)[C@H](CO)NC1=O | haemolysis | horse erythrocytes | 2 h, 37 °C |  | HC50 | 84.9 µM
O=C(O)CCCc1ccc(N(CCCl)CCCl)cc1 | cytochrome c release, ELISA | BALB/cByJ female mouse liver mitochondria | 30 min | relative to: alamethicin maximal release | EC20 | > 200 µM
CSCC[C@@H]1NC(=O)[C@H](CC(=O)O)NC(=O)CNC(=O)[C@H](CCCNC(=N)N)NC(=O)[C@H](C)NC(=O)[C@H](CCC(=O)O)NC(=O)[C@H](CCCNC(=N)N)NC(=O)[C@@H]2CSSC[C@@H]3NC(=O)[C@H](CO)NC(=O)[C@H]([C@@H](C)O)NC(=O)[C@@H]4CCCN4C(=O)[C@H](C)NC(=O)[C@H](Cc4c[nH]c5ccccc45)NC(=O)[C@H](CC(=O)O)NC(=O)CNC(=O)[C@H](CCCNC(=N)N)NC(=O)CNC(=O)[C@H](CCC(N)=O)NC(=O)[C@@H]4CCCN4C(=O)[C@@H](NC(=O)CNC(=O)C(C)F)CSSC[C@H](NC(=O)CNC(=O)[C@H](C)NC(=O)[C@H](CC(C)C)NC(=O)[C@H](CSSC[C@@H](C(=O)NCC(N)=O)NC(=O)[C@H]([C@@H](C)O)NC(=O)[C@H](CCCNC(=N)N)NC(=O)[C@@H]4CCCN4C1=O)NC(=O)[C@H](CC(=O)O)NC(=O)[C@H](CO)NC(=O)[C@H](CC(=O)O)NC(=O)[C@H](CCC(N)=O)NC(=O)[C@H](CO)NC3=O)C(=O)N[C@@H](C(C)C)C(=O)N2 (stereo partly shown) [fluorine-18 labelled] |  | nude mice U-87 MG xenograft, heart | intravenous, 1 h |  | tissue uptake | 0.3 ± 0.06 %ID/g
CCC[S+]([O-])c1ccc2[nH]c(NC(=O)OC)nc2c1 (stereo not shown) |  | human liver mitochondrial preparation | 1 µM, 30 min, 0.5 mg/mL protein |  | percent metabolized | 0%
ClC=C(Cl)Cl |  | human, exhaled alveolar breath | inhalation, 100 ppmv for 4 h |  | A2 coefficient | 2.86 µg/L and 4.68 µg/L
O=C(c1ccc(F)c(F)c1Nc1ccc(I)cc1F)N1CC(O)([C@@H]2CCCCN2)C1 | refers to: retinal detachment | human patients | oral, dose not given, dose escalation, suspension, grade G4 |  | treatment-related adverse events | 0%
O=c1[nH]c(=O)[nH]c(=O)[nH]1 |  | CD IGS rat, female, pregnant, serum | oral, 1000 mg/kg/day, 10 days, with rectangular renal crystals |  | serum concentration | > 152000 ng/mL

Repeated from above:
Structure (SMILES) | assay | test system | conditions | scale | measurement | result
NC(=O)c1nc(F)c[nH]c1=O | UV-Vis spectrophotometry | supercritical CO2 | 120 min, 338 K, 30 MPa, 809.58 kg/m^3 |  | solubility | 2620 µg/mL
CSCC[C@@H]1NC(=O)[C@H](CC(=O)O)NC(=O)CNC(=O)[C@H](CCCNC(=N)N)NC(=O)[C@H](C)NC(=O)[C@H](CCC(=O)O)NC(=O)[C@H](CCCNC(=N)N)NC(=O)[C@@H]2CSSC[C@@H]3NC(=O)[C@H](CO)NC(=O)[C@H]([C@@H](C)O)NC(=O)[C@@H]4CCCN4C(=O)[C@H](C)NC(=O)[C@H](Cc4c[nH]c5ccccc45)NC(=O)[C@H](CC(=O)O)NC(=O)CNC(=O)[C@H](CCCNC(=N)N)NC(=O)CNC(=O)[C@H](CCC(N)=O)NC(=O)[C@@H]4CCCN4C(=O)[C@@H](NC(=O)CNC(=O)C(C)F)CSSC[C@H](NC(=O)CNC(=O)[C@H](C)NC(=O)[C@H](CC(C)C)NC(=O)[C@H](CSSC[C@@H](C(=O)NCC(N)=O)NC(=O)[C@H]([C@@H](C)O)NC(=O)[C@H](CCCNC(=N)N)NC(=O)[C@@H]4CCCN4C1=O)NC(=O)[C@H](CC(=O)O)NC(=O)[C@H](CO)NC(=O)[C@H](CC(=O)O)NC(=O)[C@H](CCC(N)=O)NC(=O)[C@H](CO)NC3=O)C(=O)N[C@@H](C(C)C)C(=O)N2 (stereo partly shown) [fluorine-18 labelled] |  | nude mice U-87 MG xenograft, heart | intravenous, 1 h |  | tissue uptake | 0.3 ± 0.06 %ID/g
CCCCc1oc2ccc(NS(C)(=O)=O)cc2c1C(=O)c1ccc(OCCCN(CCCC)CCCC)cc1 |  | beagle dog, female, persistent atrial fibrillation model | intravenous, 3 mg/kg, 0.5 h |  | peak QTcF change | 16 ± 11 ms
